Measurements collected from several papers.
Each line is one published result; not all experiments were run side by side. Values joined by “and” are separate records of one study, mostly repeats; a detail may differ.
MAP3K20: Mitogen-activated protein kinase kinase kinase 20 (MAP3K20, Homo sapiens, UniProt Q9NYL2)

Nc1ncc2c(n1)-c1c([nH]c3ccc(C4=CCOCC4)cc13)CCC2 — remaining binding (MAP3K20; binding, competition with immobilised ligand; 1 µM): 100%
CNC1C[S+]2CC[S+]3CC[S+](C1)[Ru-4]321([N]=C=S)[n]2c3ccc(OC)cc3c3c4c(c5cc(F)c[n+]1c5c32)C(=O)NC4=O (stereo not drawn) — remaining binding (MAP3K20; KinomeScan; 0.1 µM; baseline: untreated): 100%
CCCCCC(O)/C=C/C=O (stereo not drawn) — isoTOP-ABPP competition ratio (Mitogen-activated protein kinase kinase kinase 20, Cys22 (MAP3K20, Homo sapiens, UniProt Q9NYL2); competitive isoTOP-ABPP; proteome, soluble, MDA-MB-231; 100 µM, 60 min, together with: iodoacetamide probe; baseline: DMSO over compound-treated, higher = stronger cysteine blockade): 15
COc1cc(Nc2nccc(-c3cnn4nc(OC)ccc34)n2)cc(C(F)(F)F)c1 — remaining binding (MAP3K20; binding, competition with immobilised ligand; 1 µM): 100%
CCN1CCN(Cc2ccc(NC(=O)c3ccc(C)c(NC(=O)c4cncc(-c5cccs5)c4)c3)cc2C(F)(F)F)CC1 — remaining binding (MAP3K20; binding, competition with immobilised ligand; 1 µM): 0%
NC(=O)[C@@H](O)C[C@H]1CCc2sc3ncnc(O[C@H]4CC[C@H](N5CCOCC5)CC4)c3c21 — inhibition (MAP3K20; enzyme activity, inhibitor; 10 µM): 2%
CS(=O)(=O)Nc1cccc(-c2csc3cnc(Nc4ccc(N5CCN(CCCCCOc6cccc7c6C(=O)N(C6CCC(=O)NC6=O)C7=O)CC5)cc4)nc23)c1 (stereo not drawn) — inhibition (MAP3K20; probe labelling, inhibitor, KiNativ chemoproteomics; MOLT-4; 1 µM): 2.38%
CN1CCN(Cc2ccc(-c3ccc(CO[C@H]4CCC[C@@H]4NC(=O)c4cc(-c5cnn(C)c5)cnc4N)cc3)cc2)CC1 — inhibition (MAP3K20; enzyme activity, inhibitor; 0.1 µM): 0%
C=CC(=O)N1Cc2nc(-c3cc(-c4cc(Cl)cnc4Cl)c(F)cc3F)n(-c3ccncn3)c2C1 — inhibition (MAP3K20; cell-free assay, inhibitor; 1 µM): 1.9%
N[C@H]1CC[C@H](Nc2nccc(-c3cccnc3Oc3ccc(NC(=O)NC4CC4)c4ccccc34)n2)CC1 — log2 LFQ intensity (MAP3K20; kinobead competition pulldown; HEK293/HCT116 lysate mixture; 10 µM, 1 h, 4 °C; lower = stronger competition): 22.9 and 23.1 and 22.8
C=CC(=O)N1CCc2ccc(-n3c(=O)ccc4cnc5ccc(-c6cnn(C)c6)cc5c43)cc21 — remaining binding (MAP3K20; KINOMEscan; 1 µM; baseline: DMSO control): 95%
Cc1ccc(-c2c(/C=C(\C#N)C(=O)NC(C)C)n(CCCO)c3ncnc(N)c23)cc1 — remaining binding (MAP3K20; cell-free assay, competition with immobilised ligand; 1 µM): 100%
C=CC(=O)N1CCCC(n2c(=O)c3ncccc3n(Cc3ccc(Oc4ccccc4)cc3)c2=O)C1 (stereo not drawn) — remaining binding (MAP3K20; cell-free assay, competition with immobilised ligand; 1 µM): 83%
CCN1CCN(Cc2ccc(C(=O)Nc3ccc(C)c(NCc4cnc5[nH]ccc5c4OC)c3)cc2C(F)(F)F)CC1 — remaining binding (MAP3K20; binding, competition with immobilised ligand; 1 µM): 0.6%
Cc1nc2c(F)cc(-c3nc(Nc4ccc(CNC(=O)CCCCCCC(=O)NO)cc4)ncc3F)cc2n1C(C)C — inhibition (MAP3K20; enzyme activity, inhibitor; 1 µM): 50%

Repeated from above:
CN1CCN(Cc2ccc(-c3ccc(CO[C@H]4CCC[C@@H]4NC(=O)c4cc(-c5cnn(C)c5)cnc4N)cc3)cc2)CC1 — inhibition (MAP3K20; enzyme activity, inhibitor; 0.1 µM): 0%
CCN1CCN(Cc2ccc(NC(=O)c3ccc(C)c(NC(=O)c4cncc(-c5cccs5)c4)c3)cc2C(F)(F)F)CC1 — remaining binding (MAP3K20; binding, competition with immobilised ligand; 1 µM): 0%
